Results pooled from the literature.
Protocols differ between the studies behind these lines. ± marks the error that the study gave.
HDAC7: Histone deacetylase 7 (HDAC7, Homo sapiens, UniProt Q8WUI4)
UniProt Q8WUI4, sequence (whole entry, looked up): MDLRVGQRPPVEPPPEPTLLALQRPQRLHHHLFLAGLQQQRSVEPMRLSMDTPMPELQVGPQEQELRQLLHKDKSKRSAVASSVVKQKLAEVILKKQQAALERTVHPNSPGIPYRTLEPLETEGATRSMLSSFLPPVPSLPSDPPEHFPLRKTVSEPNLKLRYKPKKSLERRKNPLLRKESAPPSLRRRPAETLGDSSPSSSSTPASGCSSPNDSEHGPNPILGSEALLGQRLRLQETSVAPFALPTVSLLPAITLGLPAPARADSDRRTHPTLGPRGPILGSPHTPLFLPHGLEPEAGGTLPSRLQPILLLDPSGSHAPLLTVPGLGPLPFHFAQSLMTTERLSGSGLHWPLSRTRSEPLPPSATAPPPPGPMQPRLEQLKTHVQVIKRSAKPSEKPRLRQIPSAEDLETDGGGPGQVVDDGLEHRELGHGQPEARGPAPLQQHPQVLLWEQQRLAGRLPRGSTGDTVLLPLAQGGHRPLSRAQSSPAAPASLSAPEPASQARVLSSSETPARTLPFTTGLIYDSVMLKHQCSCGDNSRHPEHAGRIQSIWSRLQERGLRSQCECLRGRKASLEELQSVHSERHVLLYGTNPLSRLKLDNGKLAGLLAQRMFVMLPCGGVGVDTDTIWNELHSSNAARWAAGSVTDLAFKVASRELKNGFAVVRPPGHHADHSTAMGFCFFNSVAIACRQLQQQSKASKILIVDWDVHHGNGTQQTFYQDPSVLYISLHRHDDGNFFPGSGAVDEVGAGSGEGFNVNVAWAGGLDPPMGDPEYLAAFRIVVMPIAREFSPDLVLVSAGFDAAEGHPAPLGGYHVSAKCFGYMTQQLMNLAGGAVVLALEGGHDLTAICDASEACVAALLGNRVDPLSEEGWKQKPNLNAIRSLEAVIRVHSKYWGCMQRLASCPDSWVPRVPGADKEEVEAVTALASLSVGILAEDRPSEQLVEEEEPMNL
60 kDa heat shock protein, mitochondrial with HSP10: 60 kDa heat shock protein, mitochondrial, with HSP10 (Homo sapiens, UniProt P10809)
UniProt P10809, sequence (whole entry, looked up): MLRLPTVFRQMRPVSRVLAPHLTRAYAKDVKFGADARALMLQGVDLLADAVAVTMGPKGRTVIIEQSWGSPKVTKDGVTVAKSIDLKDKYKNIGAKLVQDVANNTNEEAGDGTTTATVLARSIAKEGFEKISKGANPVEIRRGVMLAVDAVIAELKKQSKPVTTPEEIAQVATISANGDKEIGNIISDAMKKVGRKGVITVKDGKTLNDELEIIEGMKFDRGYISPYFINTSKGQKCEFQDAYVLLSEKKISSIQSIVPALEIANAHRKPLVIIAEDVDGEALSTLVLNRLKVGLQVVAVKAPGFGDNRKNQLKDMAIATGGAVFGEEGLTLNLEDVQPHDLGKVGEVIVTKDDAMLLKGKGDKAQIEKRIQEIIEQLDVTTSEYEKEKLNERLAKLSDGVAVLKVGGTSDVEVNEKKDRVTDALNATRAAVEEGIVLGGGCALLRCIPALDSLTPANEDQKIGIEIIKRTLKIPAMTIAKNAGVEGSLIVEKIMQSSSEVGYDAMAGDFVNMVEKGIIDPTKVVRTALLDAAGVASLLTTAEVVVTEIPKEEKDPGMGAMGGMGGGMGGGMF
Gria2/Glutamate receptor 3: Gria2/Glutamate receptor 3 (Rattus norvegicus, UniProt P19491+P19492)
UniProt P19491, sequence (whole entry, looked up): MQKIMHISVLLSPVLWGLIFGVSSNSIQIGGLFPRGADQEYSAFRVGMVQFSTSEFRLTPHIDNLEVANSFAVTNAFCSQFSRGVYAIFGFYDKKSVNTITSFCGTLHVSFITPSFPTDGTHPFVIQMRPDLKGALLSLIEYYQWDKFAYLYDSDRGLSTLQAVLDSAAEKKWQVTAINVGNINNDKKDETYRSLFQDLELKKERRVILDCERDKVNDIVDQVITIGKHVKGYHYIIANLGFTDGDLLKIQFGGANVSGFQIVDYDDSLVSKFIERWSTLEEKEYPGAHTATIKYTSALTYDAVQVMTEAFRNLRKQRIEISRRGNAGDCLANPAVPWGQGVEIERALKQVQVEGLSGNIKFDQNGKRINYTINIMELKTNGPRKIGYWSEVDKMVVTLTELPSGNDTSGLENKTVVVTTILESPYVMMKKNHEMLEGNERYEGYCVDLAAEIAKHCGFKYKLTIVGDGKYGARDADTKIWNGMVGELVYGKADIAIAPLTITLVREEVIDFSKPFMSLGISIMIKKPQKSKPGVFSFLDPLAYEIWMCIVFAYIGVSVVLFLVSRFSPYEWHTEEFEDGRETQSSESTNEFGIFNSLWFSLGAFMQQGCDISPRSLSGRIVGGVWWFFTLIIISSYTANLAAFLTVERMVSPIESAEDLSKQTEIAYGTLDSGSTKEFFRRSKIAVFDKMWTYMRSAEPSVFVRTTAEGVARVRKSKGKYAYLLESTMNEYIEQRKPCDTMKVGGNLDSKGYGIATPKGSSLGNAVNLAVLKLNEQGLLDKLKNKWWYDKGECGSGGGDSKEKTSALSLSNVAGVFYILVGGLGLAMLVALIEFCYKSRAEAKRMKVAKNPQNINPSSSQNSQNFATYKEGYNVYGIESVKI
UniProt P19492, sequence (whole entry, looked up): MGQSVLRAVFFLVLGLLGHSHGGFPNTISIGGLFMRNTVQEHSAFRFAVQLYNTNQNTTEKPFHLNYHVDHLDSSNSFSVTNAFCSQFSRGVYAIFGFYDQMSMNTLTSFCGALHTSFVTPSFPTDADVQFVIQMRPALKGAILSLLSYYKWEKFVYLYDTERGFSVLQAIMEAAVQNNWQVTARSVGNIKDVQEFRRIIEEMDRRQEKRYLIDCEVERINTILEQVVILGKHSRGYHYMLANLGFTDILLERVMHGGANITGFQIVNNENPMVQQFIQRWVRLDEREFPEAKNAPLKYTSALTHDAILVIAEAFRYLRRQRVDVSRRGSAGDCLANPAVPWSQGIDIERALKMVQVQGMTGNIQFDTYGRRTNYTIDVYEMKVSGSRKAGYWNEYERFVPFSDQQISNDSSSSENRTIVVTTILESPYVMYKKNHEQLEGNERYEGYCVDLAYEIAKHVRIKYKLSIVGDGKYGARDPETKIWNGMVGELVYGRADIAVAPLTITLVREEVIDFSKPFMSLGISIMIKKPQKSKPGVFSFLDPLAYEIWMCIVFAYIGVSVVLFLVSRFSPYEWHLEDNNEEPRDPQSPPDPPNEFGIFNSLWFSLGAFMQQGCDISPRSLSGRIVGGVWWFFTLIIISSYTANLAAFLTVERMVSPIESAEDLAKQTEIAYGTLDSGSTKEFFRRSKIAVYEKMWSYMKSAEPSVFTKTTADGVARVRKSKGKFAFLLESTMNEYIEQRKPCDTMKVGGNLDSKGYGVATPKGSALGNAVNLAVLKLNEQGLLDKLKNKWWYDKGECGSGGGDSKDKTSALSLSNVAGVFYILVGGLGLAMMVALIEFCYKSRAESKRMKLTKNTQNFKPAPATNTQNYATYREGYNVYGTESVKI
DGKZ: Diacylglycerol kinase zeta (DGKZ, Homo sapiens, UniProt Q13574)
IDO1: Indoleamine 2,3-dioxygenase 1 (IDO1, Homo sapiens, UniProt P14902)
UniProt P14902, sequence (whole entry, looked up): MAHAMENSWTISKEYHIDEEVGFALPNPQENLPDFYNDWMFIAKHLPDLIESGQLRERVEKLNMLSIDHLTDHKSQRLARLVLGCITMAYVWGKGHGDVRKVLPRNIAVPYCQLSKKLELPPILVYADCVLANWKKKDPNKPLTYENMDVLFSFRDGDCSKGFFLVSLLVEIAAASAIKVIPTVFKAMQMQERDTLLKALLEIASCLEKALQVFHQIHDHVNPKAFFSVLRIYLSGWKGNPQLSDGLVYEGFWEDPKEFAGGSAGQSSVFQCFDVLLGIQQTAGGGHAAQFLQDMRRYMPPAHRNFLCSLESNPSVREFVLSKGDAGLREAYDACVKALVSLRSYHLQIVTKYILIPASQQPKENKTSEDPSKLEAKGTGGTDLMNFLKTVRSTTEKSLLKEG
PIK3CA: Phosphatidylinositol 4,5-bisphosphate 3-kinase catalytic subunit alpha isoform (PIK3CA, Homo sapiens, UniProt P42336)
UniProt P42336, sequence (whole entry, looked up): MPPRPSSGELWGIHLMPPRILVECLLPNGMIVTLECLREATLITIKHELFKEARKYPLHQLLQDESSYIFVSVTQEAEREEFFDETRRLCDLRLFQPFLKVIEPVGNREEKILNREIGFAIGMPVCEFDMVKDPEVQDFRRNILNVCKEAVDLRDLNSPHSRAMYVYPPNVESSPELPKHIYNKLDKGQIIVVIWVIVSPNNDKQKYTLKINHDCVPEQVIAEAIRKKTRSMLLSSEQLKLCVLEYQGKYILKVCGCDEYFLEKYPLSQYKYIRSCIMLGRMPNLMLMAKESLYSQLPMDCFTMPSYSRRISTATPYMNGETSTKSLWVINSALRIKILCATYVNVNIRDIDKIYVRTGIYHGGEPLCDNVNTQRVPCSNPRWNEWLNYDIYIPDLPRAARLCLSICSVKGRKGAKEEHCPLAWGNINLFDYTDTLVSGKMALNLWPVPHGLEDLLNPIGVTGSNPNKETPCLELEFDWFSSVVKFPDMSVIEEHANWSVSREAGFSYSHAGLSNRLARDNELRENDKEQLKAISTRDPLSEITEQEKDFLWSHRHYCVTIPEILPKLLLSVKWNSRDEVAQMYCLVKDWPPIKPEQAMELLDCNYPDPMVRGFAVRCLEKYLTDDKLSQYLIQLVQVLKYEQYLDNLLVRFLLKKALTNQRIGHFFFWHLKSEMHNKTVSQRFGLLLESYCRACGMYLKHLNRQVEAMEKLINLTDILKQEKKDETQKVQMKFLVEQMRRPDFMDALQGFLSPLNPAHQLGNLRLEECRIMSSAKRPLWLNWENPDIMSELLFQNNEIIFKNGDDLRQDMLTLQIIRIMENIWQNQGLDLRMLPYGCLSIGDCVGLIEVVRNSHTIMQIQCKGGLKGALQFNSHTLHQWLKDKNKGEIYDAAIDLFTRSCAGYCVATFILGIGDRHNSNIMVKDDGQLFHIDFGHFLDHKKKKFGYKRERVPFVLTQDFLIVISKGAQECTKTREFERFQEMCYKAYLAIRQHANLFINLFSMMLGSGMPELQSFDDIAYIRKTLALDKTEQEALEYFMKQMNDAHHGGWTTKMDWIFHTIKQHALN
UniProt P20618, sequence (whole entry, looked up): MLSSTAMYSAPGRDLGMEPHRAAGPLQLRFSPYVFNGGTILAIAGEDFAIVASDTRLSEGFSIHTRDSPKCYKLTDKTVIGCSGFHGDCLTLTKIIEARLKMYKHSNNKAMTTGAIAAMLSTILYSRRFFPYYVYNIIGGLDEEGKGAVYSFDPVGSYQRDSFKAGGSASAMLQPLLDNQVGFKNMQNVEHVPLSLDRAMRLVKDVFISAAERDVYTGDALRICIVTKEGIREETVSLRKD

C=CCc1ccc(O)c(-c2ccc(O)c(CC=C)c2)c1 — IC50 (CES1 (Homo sapiens, UniProt P23141); enzyme activity, inhibitor): 6.29 µM
O=C1CCC(N2C(=O)c3ccc(N4CC(C(=O)N5CC(CN6CCC(CNC(=O)c7cccc(-c8noc(C(F)(F)F)n8)c7)(c7nc(-c8ccccc8)cs7)CC6)C5)C4)cc3C2=O)C(=O)N1 (centres unmarked) — IC50 (HDAC7; enzyme activity, inhibitor): 0.29 µM
Cc1ccc(-c2c3c([nH]c(=O)c2C#N)C(C(C)C)CNC3)cc1 (centres unmarked) — IC50 (PDE9A (Homo sapiens, UniProt O76083); enzyme activity, inhibitor, radiometric): 0.99 µM
CCN(CC)CC(=O)Nc1cccc(-n2cc(-c3ccc4ccc(-c5cn(-c6cccc(NC(=O)CN(CC)CC)c6)nn5)cc4c3)nn2)c1 — IC50 (RPS6KB1 (Homo sapiens, UniProt P23443); enzyme activity, inhibitor): > 10 µM
C#CCCn1nc(C)c2c(Cl)c(C(=O)NCC3CC(Br)=NO3)cnc21 (centres unmarked) — IC50 (60 kDa heat shock protein, mitochondrial with HSP10; ATPase activity; 30 min, with: HSP10): > 250 µM
COC(=O)c1ccc(OC)c(OCc2ccccc2)c1-c1c(C(=O)OC)ccc(OC)c1OCc1ccccc1 — IC50 (TLR2 (Homo sapiens, UniProt O60603); reporter gene, inhibitor, SEAP reporter; HEK-Blue hTLR2; 24 h, with: Pam3CSK4 100 ng/mL): > 100 µM
COC(=O)Cc1cc2c(cc1C(=O)c1ccc(Cl)cc1Cl)OCO2 — IC50 (Gria2/Glutamate receptor 3; ion current, antagonist, patch clamp): 4.9 µM
C[C@@H]1CN(c2cc(=O)n(C)c3ccc(C#N)nc23)[C@@H](C)CN1Cc1ccc(S(=O)(=O)n2cnc(C3CC3)n2)cc1 — IC50 (DGKZ; inhibitor, ADP-Glo; with: DAG micelles): 1.44 µM
CNC(=O)c1ccc(-c2cc(Cl)cc(Cl)c2Cl)c(N)n1 — IC50 (SCN10A (Homo sapiens, UniProt Q9Y5Y9); ion current, inhibitor, patch clamp): 0.55 µM
Cc1nc2c(F)cc(-c3nc(Nc4ccc(CNC(=O)CCCCCCC(=O)NO)cc4)ncc3F)cc2n1C(C)C — IC50 (HDAC7; enzyme activity, inhibitor): > 10 µM
CC(C)(C)NC(=O)CC(NC(=O)CCc1ccccc1)C(=O)NCCNC(=O)c1cccc2ccccc12 (centres unmarked) — IC50 (Proteasome component C5/PSMB8 (Homo sapiens, UniProt P20618+P28062); enzyme activity, inhibitor; immunoproteasome β5i): 0.37 µM
Fc1cccc(COc2ccc(Nc3ncnc4ccc(-c5cccc(CN6CCCCC6)c5)cc34)cc2Cl)c1 — EC50 (Leishmania major; intracellular amastigote growth, luciferase; RAW264.7 macrophages): 3.5 µM
O=C(CCNC(=O)CNC(=O)CC(c1ccccc1)(c1ccccc1)c1ccccc1)NC[C@@H]1CCCN(Cc2ccc(F)cc2)C1 — IC50 (CHRM1 (Homo sapiens, UniProt P11229); ligand displacement, radioligand; cell membranes): 23.1 µM
O=C1C(Cl)=C(NCCNCCO)C(=O)c2ccccc21 — IC50 (SETD7 (Homo sapiens, UniProt Q8WTS6); enzyme activity, inhibitor): > 50 µM
CC(C)C[C@@H](NC(=O)C(=O)O)C(=O)O — IC50 (KDM4E (Homo sapiens, UniProt B2RXH2); enzyme activity, inhibitor): > 1000 µM
Cc1oc(C)c(-c2ccc(N(CC(C)C)CC(C)C)c(NC(=O)Nc3ccc(B4OC(C)(C)C(C)(C)O4)cc3)c2)c1C(=O)O — IC50 (IDO1; enzyme activity, inhibitor, recombinant enzyme, item: kynurenine; 20 min, 2% DMSO, with: L-tryptophan): 35 ± 9 µM
CC[C@H](C)[C@@H]1NC(=O)[C@H](Cc2ccccc2C(F)(F)F)NC(=O)CCSCc2cccc(n2)CSCCCNC(=O)[C@H](CCCCCC(=O)O)NC1=O — IC50 (HDAC7; enzyme activity, inhibitor, fluorogenic): > 30 µM
CS(=O)(=O)c1ccc(-c2ccc3ncnc(Nc4ccc(OCc5cccc(F)c5)c(Cl)c4)c3c2)cc1 — EC50 (Leishmania major; intracellular amastigote growth, luciferase; RAW264.7 macrophages): 3.9 µM
COC(=O)Cc1cc2c(cc1C(=O)c1ccccc1Br)OCO2 — IC50 (Gria2/Glutamate receptor 3; ion current, patch clamp): 5.5 µM
Cc1oc(C)c(-c2ccc(N(CC(C)C)C3CCCCC3)c(NC(=O)Nc3ccc(B(O)O)cc3)c2)c1C(=O)O — IC50 (IDO1; enzyme activity, inhibitor, recombinant enzyme, item: kynurenine; 20 min, 2% DMSO, with: L-tryptophan): 34 ± 10 µM
C[C@@H]1Cc2c([nH]c3ccccc23)[C@@H](c2c(F)cc(/C=C/C(=O)O)cc2F)N1C12CC(C1)C2 — IC50 (ESR2 (Homo sapiens, UniProt Q92731); cell-free assay): 0.000779 µM
O=C(O)Cc1cc2c(cc1C(=O)c1ccccc1Br)OCO2 — IC50 (Gria2/Glutamate receptor 3; ion current, patch clamp): 4.62 µM
Cc1nn(-c2cccc(N)c2)c(=O)c2cnc(Nc3ccc(N4CCNCC4)cc3)nc12 — IC50 (MKNK1 (Homo sapiens, UniProt Q9BUB5); enzyme activity, inhibitor): > 10 µM
O=C(O)Cc1cc2c(cc1C(=O)c1cccc(I)c1)OCO2 — IC50 (Gria2/Glutamate receptor 3; ion current, antagonist, patch clamp): 4.68 µM
FC(F)(F)c1cccc(CNc2nc(NC3CCN(Cc4ccccc4)CC3)c3nc[nH]c3n2)c1 — IC50 (IPMK (Homo sapiens, UniProt Q8NFU5); enzyme activity, inhibitor): 4 µM
O=C1/C(=N\c2ccc(Cl)cc2Br)c2ccccc2N1Cc1ccccc1 (mixture of isomers) — IC50 (PIK3CA; enzyme activity, inhibitor, ADP detection): 0.133 µM
CC[C@H]1CN(C(c2cccc(C(F)(F)F)c2)c2nc(C(F)(F)F)nn2C)[C@H](CC)CN1c1nc(=O)n(C)c2ccc(C#N)nc12 (some centres unmarked) — IC50 (DGKZ; lipid kinase activity, inhibitor, ADP-Glo): 0.004 µM
O=C(Cc1ccc(OCc2ccccc2)cc1)NC1(C(=O)O)CCN(C(=O)c2ccc(-c3cccc(Cl)c3)cc2)CC1 — IC50 (Putative P2Y purinoceptor 10 (Homo sapiens, UniProt O00398); TGF-alpha shedding, antagonist): > 10 µM
CCn1nc(Cl)c2c1-c1cnc(N)c(c1)O[C@H](C)c1cc(F)ccc1-c1nn(C)cc1C2 — IC50 (ROS1 (Homo sapiens, UniProt P08922); enzyme activity, inhibitor, radiometric): 0.0012 µM
COc1ccc(CNC(=O)c2cnc3c(c(C)nn3C)c2Cl)cc1 — IC50 (60 kDa heat shock protein, mitochondrial with HSP10; HSP60/10-mediated MDH refolding; 5 min, preincubation before ATP, with: denatured malate dehydrogenase): 27 µM
Cc1ccc(Nc2cc(NC3CC3)n3ncc(C#N)c3n2)cc1NC(=O)C1CC1 — IC50 (CSNK2A1 (Homo sapiens, UniProt P68400); inhibitor): 0.15 µM
C#CCCn1nc(C)c2c(Cl)c(C(=O)NCC3CC(C)=NO3)cnc21 (centres unmarked) — IC50 (60 kDa heat shock protein, mitochondrial with HSP10; ATPase activity; 30 min, with: HSP10): > 250 µM
OC[C@H]1O[C@@H](Oc2cc3c(O)cc(O)cc3[o+]c2-c2cc(O)c(O)c(O)c2)[C@H](O)[C@@H](O)[C@H]1O — IC50 (PPO3 (Agaricus bisporus, UniProt C7FF04); enzyme activity, inhibitor, absorbance; pH 6.8): 45.1 µM
O=C(O)Cc1cc2c(cc1C(=O)c1ccccc1)OCO2 — IC50 (Gria2/Glutamate receptor 3; ion current, antagonist, patch clamp): 5.5 µM
O=C1/C(=N\c2ccc(Cl)cc2Br)c2ccccc2N1C(=O)c1ccccc1Br — IC50 (PIK3CA; enzyme activity, inhibitor, ADP detection): 0.0936 µM

A few entries again:
COC(=O)c1ccc(OC)c(OCc2ccccc2)c1-c1c(C(=O)OC)ccc(OC)c1OCc1ccccc1 — IC50 (TLR2 (Homo sapiens, UniProt O60603); reporter gene, inhibitor, SEAP reporter; HEK-Blue hTLR2; 24 h, with: Pam3CSK4 100 ng/mL): > 100 µM
COC(=O)Cc1cc2c(cc1C(=O)c1ccc(Cl)cc1Cl)OCO2 — IC50 (Gria2/Glutamate receptor 3; ion current, antagonist, patch clamp): 4.9 µM
C[C@@H]1CN(c2cc(=O)n(C)c3ccc(C#N)nc23)[C@@H](C)CN1Cc1ccc(S(=O)(=O)n2cnc(C3CC3)n2)cc1 — IC50 (DGKZ; inhibitor, ADP-Glo; with: DAG micelles): 1.44 µM
CNC(=O)c1ccc(-c2cc(Cl)cc(Cl)c2Cl)c(N)n1 — IC50 (SCN10A (Homo sapiens, UniProt Q9Y5Y9); ion current, inhibitor, patch clamp): 0.55 µM
